{"data": "Assay results collected from several papers", "note": "A part holds a random share of what one study measured.", "chain of UniProt Q8IYT8 (whole entry, looked up)": "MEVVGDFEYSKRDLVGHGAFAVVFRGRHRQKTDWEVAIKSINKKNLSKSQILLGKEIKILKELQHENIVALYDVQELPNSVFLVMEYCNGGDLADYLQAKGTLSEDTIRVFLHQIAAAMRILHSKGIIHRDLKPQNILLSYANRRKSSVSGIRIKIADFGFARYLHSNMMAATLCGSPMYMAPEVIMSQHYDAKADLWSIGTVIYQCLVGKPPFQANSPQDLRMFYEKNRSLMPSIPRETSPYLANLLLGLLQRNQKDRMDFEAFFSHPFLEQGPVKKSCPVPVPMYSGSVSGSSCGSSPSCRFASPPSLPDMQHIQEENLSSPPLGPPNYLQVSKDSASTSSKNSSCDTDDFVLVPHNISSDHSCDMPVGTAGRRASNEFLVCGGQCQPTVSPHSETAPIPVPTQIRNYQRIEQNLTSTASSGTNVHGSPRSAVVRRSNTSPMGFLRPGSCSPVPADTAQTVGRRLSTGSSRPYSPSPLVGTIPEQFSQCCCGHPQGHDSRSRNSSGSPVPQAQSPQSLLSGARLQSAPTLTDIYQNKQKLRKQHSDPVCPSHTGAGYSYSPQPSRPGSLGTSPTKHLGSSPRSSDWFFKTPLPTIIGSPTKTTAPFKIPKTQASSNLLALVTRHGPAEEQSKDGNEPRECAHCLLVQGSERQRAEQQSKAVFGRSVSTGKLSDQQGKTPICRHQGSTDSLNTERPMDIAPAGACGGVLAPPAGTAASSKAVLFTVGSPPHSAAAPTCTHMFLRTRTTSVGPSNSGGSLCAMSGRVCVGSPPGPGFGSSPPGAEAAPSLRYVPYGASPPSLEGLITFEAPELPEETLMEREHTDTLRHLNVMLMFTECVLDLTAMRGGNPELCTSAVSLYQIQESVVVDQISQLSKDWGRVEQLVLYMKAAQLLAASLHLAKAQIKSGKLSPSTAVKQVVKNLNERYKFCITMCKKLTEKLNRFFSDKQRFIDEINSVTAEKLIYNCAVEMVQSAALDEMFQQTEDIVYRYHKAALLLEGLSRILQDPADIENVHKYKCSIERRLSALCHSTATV", "chain of UniProt Q9UL54 (whole entry, looked up)": "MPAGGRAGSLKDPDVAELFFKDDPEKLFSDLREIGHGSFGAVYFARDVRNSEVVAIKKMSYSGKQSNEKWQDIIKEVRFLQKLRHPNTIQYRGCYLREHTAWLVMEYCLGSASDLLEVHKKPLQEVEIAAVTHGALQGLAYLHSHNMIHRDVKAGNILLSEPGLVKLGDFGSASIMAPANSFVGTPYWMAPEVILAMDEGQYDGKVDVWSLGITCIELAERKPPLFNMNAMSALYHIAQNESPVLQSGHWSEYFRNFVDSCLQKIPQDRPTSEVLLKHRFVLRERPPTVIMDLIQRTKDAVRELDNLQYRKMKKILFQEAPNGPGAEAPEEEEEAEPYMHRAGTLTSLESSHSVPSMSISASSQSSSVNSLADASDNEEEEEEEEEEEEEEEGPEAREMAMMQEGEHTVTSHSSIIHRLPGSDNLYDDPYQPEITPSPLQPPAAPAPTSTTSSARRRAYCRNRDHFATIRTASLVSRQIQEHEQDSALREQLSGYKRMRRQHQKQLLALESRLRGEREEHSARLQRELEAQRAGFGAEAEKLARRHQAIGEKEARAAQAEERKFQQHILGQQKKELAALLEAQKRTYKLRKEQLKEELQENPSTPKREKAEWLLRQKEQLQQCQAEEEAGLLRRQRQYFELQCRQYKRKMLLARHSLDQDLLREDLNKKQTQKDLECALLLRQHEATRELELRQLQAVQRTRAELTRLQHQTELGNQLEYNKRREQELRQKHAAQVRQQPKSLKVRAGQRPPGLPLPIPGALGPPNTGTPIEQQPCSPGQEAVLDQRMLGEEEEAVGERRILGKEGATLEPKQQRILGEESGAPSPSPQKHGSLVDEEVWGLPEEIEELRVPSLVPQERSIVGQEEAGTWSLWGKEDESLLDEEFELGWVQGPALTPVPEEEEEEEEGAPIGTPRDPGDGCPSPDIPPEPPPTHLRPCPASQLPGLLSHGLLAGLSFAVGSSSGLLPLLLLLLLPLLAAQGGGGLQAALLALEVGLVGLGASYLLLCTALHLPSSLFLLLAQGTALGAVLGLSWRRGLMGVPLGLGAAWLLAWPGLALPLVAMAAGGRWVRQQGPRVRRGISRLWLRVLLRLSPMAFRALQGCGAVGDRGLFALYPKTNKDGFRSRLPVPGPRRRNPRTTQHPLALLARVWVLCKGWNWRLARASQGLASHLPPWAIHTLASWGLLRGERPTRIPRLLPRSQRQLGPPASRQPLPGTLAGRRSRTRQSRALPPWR", "chain of UniProt P11362 (whole entry, looked up)": "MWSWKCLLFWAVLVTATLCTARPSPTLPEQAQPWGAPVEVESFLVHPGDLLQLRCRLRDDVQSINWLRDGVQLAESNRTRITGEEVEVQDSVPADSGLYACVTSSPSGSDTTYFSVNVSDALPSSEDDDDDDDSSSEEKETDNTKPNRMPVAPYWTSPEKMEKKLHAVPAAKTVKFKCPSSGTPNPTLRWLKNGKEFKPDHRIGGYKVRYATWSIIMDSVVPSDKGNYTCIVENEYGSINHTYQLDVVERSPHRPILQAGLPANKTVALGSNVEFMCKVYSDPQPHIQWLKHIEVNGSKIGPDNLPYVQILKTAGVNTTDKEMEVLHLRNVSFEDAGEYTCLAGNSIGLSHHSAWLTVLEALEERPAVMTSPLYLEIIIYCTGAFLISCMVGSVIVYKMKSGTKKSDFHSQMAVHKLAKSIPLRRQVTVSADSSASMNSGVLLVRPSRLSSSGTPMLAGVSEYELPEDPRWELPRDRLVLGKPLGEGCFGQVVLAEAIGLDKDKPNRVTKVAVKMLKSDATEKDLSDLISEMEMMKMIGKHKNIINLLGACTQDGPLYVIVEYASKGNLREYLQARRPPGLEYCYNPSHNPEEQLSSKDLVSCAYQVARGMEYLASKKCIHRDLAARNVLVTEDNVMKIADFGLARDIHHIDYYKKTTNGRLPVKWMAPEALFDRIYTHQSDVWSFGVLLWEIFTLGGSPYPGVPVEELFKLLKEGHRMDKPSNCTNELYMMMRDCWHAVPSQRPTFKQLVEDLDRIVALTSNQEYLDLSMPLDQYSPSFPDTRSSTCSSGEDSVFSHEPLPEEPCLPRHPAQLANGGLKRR", "chain of UniProt P52333 (whole entry, looked up)": "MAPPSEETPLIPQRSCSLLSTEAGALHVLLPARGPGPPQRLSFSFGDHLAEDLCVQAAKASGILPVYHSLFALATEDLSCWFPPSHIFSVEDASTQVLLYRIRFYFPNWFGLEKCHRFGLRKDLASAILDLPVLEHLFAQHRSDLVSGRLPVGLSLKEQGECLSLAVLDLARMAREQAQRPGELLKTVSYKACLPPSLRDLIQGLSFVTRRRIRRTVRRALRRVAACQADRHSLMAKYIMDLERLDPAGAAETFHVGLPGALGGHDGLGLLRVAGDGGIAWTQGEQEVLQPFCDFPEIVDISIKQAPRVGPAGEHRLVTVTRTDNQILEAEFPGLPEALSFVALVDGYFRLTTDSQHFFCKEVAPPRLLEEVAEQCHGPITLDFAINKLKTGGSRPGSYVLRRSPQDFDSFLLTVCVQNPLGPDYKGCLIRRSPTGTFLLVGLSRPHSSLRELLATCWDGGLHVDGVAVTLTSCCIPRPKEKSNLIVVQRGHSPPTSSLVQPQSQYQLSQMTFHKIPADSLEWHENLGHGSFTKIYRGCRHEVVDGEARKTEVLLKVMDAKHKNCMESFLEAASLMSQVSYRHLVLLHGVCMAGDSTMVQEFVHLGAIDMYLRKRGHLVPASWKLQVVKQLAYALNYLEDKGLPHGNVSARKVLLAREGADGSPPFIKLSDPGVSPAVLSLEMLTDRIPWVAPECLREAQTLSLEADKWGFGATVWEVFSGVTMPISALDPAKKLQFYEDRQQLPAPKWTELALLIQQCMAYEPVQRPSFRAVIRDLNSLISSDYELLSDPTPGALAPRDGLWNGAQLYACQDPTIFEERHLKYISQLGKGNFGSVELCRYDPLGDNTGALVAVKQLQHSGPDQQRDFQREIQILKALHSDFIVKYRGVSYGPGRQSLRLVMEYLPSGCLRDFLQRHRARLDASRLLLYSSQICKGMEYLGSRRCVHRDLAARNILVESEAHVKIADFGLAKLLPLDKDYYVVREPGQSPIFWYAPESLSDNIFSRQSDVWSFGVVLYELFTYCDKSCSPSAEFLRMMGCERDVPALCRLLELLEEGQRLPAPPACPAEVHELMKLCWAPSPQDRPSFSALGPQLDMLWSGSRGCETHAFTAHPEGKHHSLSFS", "chain of UniProt P49137 (whole entry, looked up)": "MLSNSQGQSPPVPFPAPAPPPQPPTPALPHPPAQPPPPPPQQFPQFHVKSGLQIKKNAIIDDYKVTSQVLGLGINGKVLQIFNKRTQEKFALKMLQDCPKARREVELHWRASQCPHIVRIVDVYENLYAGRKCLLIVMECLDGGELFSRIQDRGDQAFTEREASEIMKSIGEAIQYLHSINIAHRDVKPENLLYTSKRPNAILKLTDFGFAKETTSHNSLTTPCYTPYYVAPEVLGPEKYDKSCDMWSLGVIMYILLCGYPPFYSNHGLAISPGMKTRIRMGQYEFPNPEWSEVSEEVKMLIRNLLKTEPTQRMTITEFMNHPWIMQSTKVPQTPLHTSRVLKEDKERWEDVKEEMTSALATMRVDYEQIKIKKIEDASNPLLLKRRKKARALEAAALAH"}
{"data": "Block 1", "target": "Protein C-ets-1, full length (ETS1, Homo sapiens, UniProt P14921, residues 1-441)", "method": "protein-binding microarray", "molecule type": "hairpin DNA", "medium": "in vitro", "concentration": "not given", "setting": "whole hairpin DNA, median over replicate spots", "relative to": "not given", "reading": "higher = stronger binding", "Construct (chain)": "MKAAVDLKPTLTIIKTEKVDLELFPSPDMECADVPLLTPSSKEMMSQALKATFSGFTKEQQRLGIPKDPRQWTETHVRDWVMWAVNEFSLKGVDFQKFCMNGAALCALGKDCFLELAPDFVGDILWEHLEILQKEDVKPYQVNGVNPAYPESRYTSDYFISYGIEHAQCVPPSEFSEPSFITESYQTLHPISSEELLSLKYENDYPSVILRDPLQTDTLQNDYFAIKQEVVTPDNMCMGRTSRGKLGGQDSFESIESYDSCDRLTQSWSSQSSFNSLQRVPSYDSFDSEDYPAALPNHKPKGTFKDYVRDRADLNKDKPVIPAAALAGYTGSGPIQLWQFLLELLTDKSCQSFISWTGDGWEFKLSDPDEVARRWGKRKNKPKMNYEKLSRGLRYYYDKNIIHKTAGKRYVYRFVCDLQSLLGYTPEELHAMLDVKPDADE"}
{"Sequence": "GAGGCCAGCCGCGAGTTGCCTCCTGGCAACTCGCGGCTGGCCTCACACTC", "median fluorescence [a.u.]": 558}
{"Sequence": "GAGGCCCGCCGGAAGTTGCCTCCTGGCAACTTCCGGCGGGCCTCACACTC (5mC at 7 37)", "median fluorescence [a.u.]": 8730}
{"Sequence": "GAGGCCAGCCGGAAGTTGCCTCCTGGCAACTTCCGGCTGGCCTCACACTC (5mC at 10 34)", "median fluorescence [a.u.]": 1040}
{"Sequence": "GAGGCCAGCCGGAAGTCGCCTCCTGGCGACTTCCGGCTGGCCTCACACTC", "median fluorescence [a.u.]": 8710}
{"Sequence": "GAGGCCAGTCAGAAGTTGCCTCCTGGCAACTTCTGACTGGCCTCACACTC", "median fluorescence [a.u.]": 549}
{"Sequence": "GAGGCCAATCGGAAGTTGCCTCCTGGCAACTTCCGATTGGCCTCACACTC", "median fluorescence [a.u.]": 3980}
{"Sequence": "GAGGCCAGTCGGACGTTGCCTCCTGGCAACGTCCGACTGGCCTCACACTC (5mC at 14 30)", "median fluorescence [a.u.]": 738}
{"Sequence": "GAGGCCAGCCTGAAGTTGCCTCCTGGCAACTTCAGGCTGGCCTCACACTC", "median fluorescence [a.u.]": 524}
{"data": "Block 2", "Structure (SMILES)": "O=C1c2ccccc2-c2nc3nnnn3nc21", "effect on": "enzyme activity", "mode": "inhibitor", "concentration": "0.5 µM", "relative to": "control"}
{"target": "MAP2K2 (Homo sapiens, UniProt P36507)", "remaining activity": "94.7%"}
{"target": "TAOK2 (Homo sapiens, UniProt Q9UL54)", "remaining activity": "91.9%"}
{"target": "RPS6KA2 (Homo sapiens, UniProt Q15349)", "remaining activity": "89.1%"}
{"target": "JAK3 (Homo sapiens, UniProt P52333)", "remaining activity": "90.4%"}
{"target": "WEE1 (Homo sapiens, UniProt P30291)", "remaining activity": "70.9%"}
{"target": "MERTK (Homo sapiens, UniProt Q12866)", "remaining activity": "93.1%"}
{"target": "MAP3K14 (Homo sapiens, UniProt Q99558)", "remaining activity": "124%"}
{"target": "EPHA3 (Homo sapiens, UniProt P29320)", "remaining activity": "81.6%"}
{"target": "ULK2 (Homo sapiens, UniProt Q8IYT8)", "remaining activity": "105%"}
{"target": "MAPKAPK2 (Homo sapiens, UniProt P49137)", "remaining activity": "104%"}
{"target": "FGFR1 (Homo sapiens, UniProt P11362)", "remaining activity": "24.2%"}
{"target": "GSK3B (Homo sapiens, UniProt P49841)", "remaining activity": "83.5%"}
{"target": "CSNK1G2 (Homo sapiens, UniProt P78368)", "remaining activity": "82.2%"}
{"data": "Block 3", "target": "Hepatocyte nuclear factor 3-alpha (Foxa1, Mus musculus, UniProt P35582, residues 1-468, full length assumed)", "method": "EMSA with sequencing", "molecule type": "double-stranded DNA, one strand shown", "medium": "in vitro", "concentration": "10 and 20 nM", "setting": "whole designed probe, mean of two concentrations, ends assumed", "relative to": "negative control set to 0", "reading": "higher = stronger binding", "shared flanks, not repeated": "GTGAGCGGTGCCCATTGATGGGGAAC … TTTCACTGGGATCGTGGGGAC", "chain of UniProt P35582 (whole entry, looked up)": "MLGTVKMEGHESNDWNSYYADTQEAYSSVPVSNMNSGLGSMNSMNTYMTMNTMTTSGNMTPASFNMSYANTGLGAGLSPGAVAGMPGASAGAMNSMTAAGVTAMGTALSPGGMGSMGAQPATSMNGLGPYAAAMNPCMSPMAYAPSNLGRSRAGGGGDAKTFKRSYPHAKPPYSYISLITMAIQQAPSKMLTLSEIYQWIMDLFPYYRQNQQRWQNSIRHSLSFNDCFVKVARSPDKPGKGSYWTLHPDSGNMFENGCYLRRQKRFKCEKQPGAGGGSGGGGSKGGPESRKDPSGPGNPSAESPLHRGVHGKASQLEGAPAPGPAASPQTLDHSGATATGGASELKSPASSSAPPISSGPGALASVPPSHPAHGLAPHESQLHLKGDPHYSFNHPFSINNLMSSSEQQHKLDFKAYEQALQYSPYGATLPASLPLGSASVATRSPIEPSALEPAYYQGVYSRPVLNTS"}
{"Sequence": "GTTCCACTCACAGCTTGACAAGTGAACTCTTTGTCAATGACAAGGCAAAGGTTAATGATTAACAGGCACTGTATTTACCAACTTAGGAACTAAATAAACAGAATCCAGACAGGATACCATTAAGAGTTGCAGCATCACCAAAAATATCTGGCTGATTGACTGAATGTCGTCGCTTTTCTTTTTCTTTTTTTGA", "normalised bound fraction": "0.448 ratio"}
{"Sequence": "CAAATCAAATGGTCTTGATACCCATGAAATGCTTATCAATATTGATTAATAAACTGCAATTAATATAAAAATTCAGAAACAAAAAAACTGCATGTTTACATTTGAAAGAAGATCAAACTGAAAAAAAGTAGTCTGTTTGGAAAGAAACATTTTAAGAATATCAATAAATTAAATATTCAATTACCTAAGTTAA", "normalised bound fraction": "0.37 ratio"}
{"Sequence": "TGAAGTTATAATAGATGTGAGGAGTTTCCTATTGCTGAATATTTACTTTTTCTAGAGGTTAAGAAGAGCTTTTAGAGTCAGAAAGACTTGACTTGTTGACTCTAAAGTCCTGGCTGGTGGTGGGTGCAGTGACTCACGCCCATAATCTCAACACTTTGGGAGGCCGAGGTGGGTGGATCACTTGAGGTCAGGA", "normalised bound fraction": "0.254 ratio"}
{"Sequence": "GGGATTACAGGTGTGAGCCACTGCACCCGGCCACAAATTTTATAGTTTATTTTTCAGTGTCCTATTATCTCAAATTGTGAGGCACACATTTTCCTGTTTACTCTGCCTACTGACTTTCCCTAATTGACGATGGCCTAGGATGATGTAGAGTTTGTTTCCTTGAATGGTTTATATTTTTTATTTTGAACTGATT", "normalised bound fraction": "0.165 ratio"}
{"Sequence": "GACACCATTTCGAACAAAACAAAACAGTTGCTCCCTTCCCTCTTGTTCCTCCCACTATTGCTGTCATTGCAAGCTCCTAGGAGCTGCCCTGTTATTTACATTGCAGTGGGCAAGACTCTGGGAAGCAGCAGGCAGGGAGGAGGATGGGAAGCAAGAACCCAGCTGGGGCTAAGCAAGGTCCAGCTCATAATAT", "normalised bound fraction": "0.415 ratio"}
{"Sequence": "CAAGTTTGTGGTCCAGGAGCAACAGGTTATGCCATACAGCCTAGGTGTGTAGTAGGCTACACACCGTCTATGTTTGTGTTGTACACTCTTTGTGCAAACATTGTTGATGAAATCTTCTCAGAACCCATGACTCATATACCCCTGTTGTTAAGCGATACATGACTGTACTTTTTTTAAAAAGTCCAAGGATATA", "normalised bound fraction": "0.438 ratio"}
{"Sequence": "AGTCCAAAAGACACAATAGGCACTGAGCAGAGGATGATGGCAATGGTAGAATGAATCATGAGGTTCATAACCAGGAGACTTAAAGCAAAAAAAATAAACAACCAAACAGCAATGGGTGAAGAGTTCCCTGCAAAGGCTAATCTATAAATAAGCACTGTGATCTTTCCTGGTCTGATAACAAATCTCATTATGA", "normalised bound fraction": "0.165 ratio"}
{"Sequence": "ATCTTCCCCCTCTTCCTTGCCCCACCAGCTCACCTTCCCGGGTTATTTGCAGATAGGAAAATAAATAAAGCCGGCATTCGTTAACCCTCTTCACGCGCATACTGCTGTTTGCTCTGGATCTAACATGGTCCTTTGGCGACGCCAGGCTCCGGGAGAGCAAAGCACCGTGTCAGGGCCATGATCCGGGGTGGCC", "normalised bound fraction": "0.37 ratio"}
{"data": "Block 4", "Structure (SMILES)": "CS(=O)(=O)NCC[C@H](NC(=O)c1cncc2c1cnn2-c1ccc(F)cc1)c1ccnc(S(C)(=O)=O)c1", "effect on": "cell-free assay", "method": "competition with immobilised ligand", "concentration": "1 µM"}
{"target": "HASPIN (Homo sapiens, UniProt Q8TF76)", "remaining binding": "100%"}
{"target": "NEK5 (Homo sapiens, UniProt Q6P3R8)", "remaining binding": "100%"}
{"target": "MAP3K6 (Homo sapiens, UniProt O95382)", "remaining binding": "100%"}
{"target": "MYLK4 (Homo sapiens, UniProt Q86YV6)", "remaining binding": "100%"}
{"target": "SRPK1 (Homo sapiens, UniProt Q96SB4)", "remaining binding": "83%"}
{"note": "Repeated from above (block 3):"}
{"Sequence": "GTTCCACTCACAGCTTGACAAGTGAACTCTTTGTCAATGACAAGGCAAAGGTTAATGATTAACAGGCACTGTATTTACCAACTTAGGAACTAAATAAACAGAATCCAGACAGGATACCATTAAGAGTTGCAGCATCACCAAAAATATCTGGCTGATTGACTGAATGTCGTCGCTTTTCTTTTTCTTTTTTTGA", "normalised bound fraction": "0.448 ratio"}
{"Sequence": "CAAATCAAATGGTCTTGATACCCATGAAATGCTTATCAATATTGATTAATAAACTGCAATTAATATAAAAATTCAGAAACAAAAAAACTGCATGTTTACATTTGAAAGAAGATCAAACTGAAAAAAAGTAGTCTGTTTGGAAAGAAACATTTTAAGAATATCAATAAATTAAATATTCAATTACCTAAGTTAA", "normalised bound fraction": "0.37 ratio"}
{"Sequence": "TGAAGTTATAATAGATGTGAGGAGTTTCCTATTGCTGAATATTTACTTTTTCTAGAGGTTAAGAAGAGCTTTTAGAGTCAGAAAGACTTGACTTGTTGACTCTAAAGTCCTGGCTGGTGGTGGGTGCAGTGACTCACGCCCATAATCTCAACACTTTGGGAGGCCGAGGTGGGTGGATCACTTGAGGTCAGGA", "normalised bound fraction": "0.254 ratio"}
